Measured values of several laboratories.
A part holds a random share of what one study measured. Substitutions count along the parent as printed.

Sample 1 — technique: DHFR PCA, dose-response; matrix: yeast; notes: Hill fit, mean, not affinity; added: (+)-ABA, dose series; reading: lower = more sensitive
Target: ABI1, truncated, D143A, DHFR fusion (Arabidopsis thaliana, UniProt P49597)
Starting sequence: PYL1, truncated, DHFR fusion (Arabidopsis thaliana, UniProt Q8VZS8); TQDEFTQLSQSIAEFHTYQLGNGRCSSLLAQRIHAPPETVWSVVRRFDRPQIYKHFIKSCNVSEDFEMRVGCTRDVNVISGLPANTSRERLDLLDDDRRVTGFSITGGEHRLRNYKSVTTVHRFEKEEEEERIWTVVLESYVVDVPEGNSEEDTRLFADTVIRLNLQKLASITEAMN
With `D144M` the ABA EC50 was 74.3 µM.
For `E130S`, the ABA EC50 was 1.6 µM.
`D96E` gave an ABA EC50 of 3.18 µM.
`V145A` has an ABA EC50 of 42.4 µM.
For `Q2N`, the ABA EC50 was 2.01 µM.
The ABA EC50 of `Y18A` is reported as 11.5 µM.
`I57T` has an ABA EC50 of 91.5 µM.
For `F56W`, the ABA EC50 was 4.43 µM.

Sample 2 — read-out: peptide-MHC binding; form: peptide; concentration: concentration not given
Target: HLA class I histocompatibility antigen, A alpha chain, allele A*25:01 (Homo sapiens, UniProt P04439)
`LTIVFVPEV` — result for binding: “inactive”.
`VSSHKGWAK` — result for binding: “inactive”.
`YKSRCYVGL` — result for binding: “inactive”.
`YMKFFGNFK` — result for binding: “inactive”.
For `NLFDWMHFL`, binding read “inactive”.

Sample 3 — target: CCND3, cyclin fold, Cln2 fusion (human); technique: yeast growth competition, sequencing; matrix: yeast; notes: weak parent motif; reference: not given; reading: higher = stronger binding
Starting sequence: viral docking peptide; KGVKRKLFAEDSS; partner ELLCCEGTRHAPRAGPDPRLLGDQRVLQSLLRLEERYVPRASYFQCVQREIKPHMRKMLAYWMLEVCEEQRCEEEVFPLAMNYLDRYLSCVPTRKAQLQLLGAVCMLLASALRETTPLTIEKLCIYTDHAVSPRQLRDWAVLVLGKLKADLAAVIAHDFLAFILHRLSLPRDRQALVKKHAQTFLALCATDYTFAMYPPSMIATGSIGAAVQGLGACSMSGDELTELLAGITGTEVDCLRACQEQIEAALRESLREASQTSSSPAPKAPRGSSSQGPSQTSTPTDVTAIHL
`K6S`: “normalised enrichment score” 0.306.
`A9C`: “normalised enrichment score” 0.135.
`K6L`: “normalised enrichment score” 0.151.
`V3S`: “normalised enrichment score” 0.487.

Sample 4 — technique: protein-binding microarray; form: double-stranded DNA, one strand shown; matrix: in vitro; concentration: 940 nM top; notes: 60-bp whole probe; added: salmon DNA 0.4 mg/ml; reference: random background probes; reading: higher = stronger binding; shared flanks, not repeated: GCCTAGCAC … GTCTTGATTCGCTTGACGCTGCTG
Target: Interferon regulatory factor 5, full length, phosphomimetic (IRF5, Homo sapiens, UniProt Q13568-2, residues 1-514, S451D/S453D/S456D/S462D)
`TTATGACTGCTTCTCCTTTAGTGCTAG`: “fitted relative affinity” 0.442 z-score.
`TACTGGACTGGGGTTTCCCGGTGCTAG` — result for “fitted relative affinity”: -0.445 z-score.
Under “fitted relative affinity”, `GACGTTTTCAGTCTCGAGACGTGCTAG` is recorded as 2.23 z-score.
`GACGGAGTGGGTCTCGGGACGTGCTAG`: “fitted relative affinity” -0.182 z-score.
`GACGGTTTCGGGACTAGGGACGTGCTA`: “fitted relative affinity” 6.34 z-score.
Under “fitted relative affinity”, `TGACAGCAGGAACATGGGCTGTGCTAG` is recorded as -0.661 z-score.
Under “fitted relative affinity”, `TCATCAATCATTTTAGTACTGTGCTAG` is recorded as 0.523 z-score.
`TTAGGTCTCCTTTTCCTTTTGTGCTAG` — result for “fitted relative affinity”: 0.825 z-score.

Some of these lines once more (sample 1):
For `Q2N`, the ABA EC50 was 2.01 µM.
The ABA EC50 of `Y18A` is reported as 11.5 µM.
`I57T` has an ABA EC50 of 91.5 µM.
